{"data": "Measurements of several laboratories", "PIK3CB": "Phosphatidylinositol 4,5-bisphosphate 3-kinase catalytic subunit beta isoform (PIK3CB, Homo sapiens, UniProt P42338)", "PIK3CB with p85 alpha": "Phosphatidylinositol 4,5-bisphosphate 3-kinase catalytic subunit beta isoform, with p85 alpha (PIK3CB, Homo sapiens, UniProt P42338)", "note": "Protocols differ between the studies behind these lines. “And” joins repeats or separate records; there may be more than shown."}
{"Structure (SMILES)": "CC(C)=CC1OC(C)(C)C2C=C3C(=O)C(Cl)=CC(O)C3C3C(O)C4OC4C(=O)C132 (centres unmarked)", "target": "PIK3CB", "test": "cell-free assay, competition with immobilised ligand", "conditions": "10 µM", "quantity": "remaining binding", "value": "57%"}
{"Structure (SMILES)": "C=CC(=O)N1Cc2nc(-c3cc(-c4cc(Cl)cnc4Cl)c(F)cc3F)n(-c3ccncn3)c2C1", "target": "Phosphatidylinositol 4,5-bisphosphate 3-kinase catalytic subunit beta isoform, with p85 beta (PIK3CB, Homo sapiens, UniProt P42338)", "test": "kinome panel", "conditions": "1 µM", "quantity": "inhibition", "value": "-5.5%"}
{"Structure (SMILES)": "CC(=O)c1cnc(N)nc1N1CC[C@H]1c1nn2ccc(Cl)c2c(=O)n1-c1ccccc1", "target": "PIK3CB", "test": "binding, competition with immobilised ligand", "conditions": "10 µM", "quantity": "remaining binding", "value": "0.45%"}
{"Structure (SMILES)": "COc1c(Cl)cccc1Nc1c(-c2ccncc2C#C[C@@]2(C)CCCN2C(=O)/C=C/CN(C)C)[nH]c2c1C(=O)NCC2", "target": "PIK3CB", "test": "cell-free assay, competition with immobilised ligand", "conditions": "3 µM", "quantity": "remaining binding", "value": "96%"}
{"Structure (SMILES)": "Nc1ncc2c(n1)-c1c([nH]c3ccc(C4=CCOCC4)cc13)CCC2", "target": "PIK3CB", "test": "binding, competition with immobilised ligand", "conditions": "1 µM", "quantity": "remaining binding", "value": "100%"}
{"Structure (SMILES)": "CCN1CCN(Cc2ccc(C(=O)Nc3ccc(C)c(NCc4cnc5[nH]ccc5c4OC)c3)cc2C(F)(F)F)CC1", "target": "PIK3CB", "test": "binding, competition with immobilised ligand", "conditions": "1 µM", "quantity": "remaining binding", "value": "68%"}
{"Structure (SMILES)": "Cc1ccc(-c2c(/C=C(\\C#N)C(=O)NC(C)C)n(CCCO)c3ncnc(N)c23)cc1", "target": "PIK3CB", "test": "cell-free assay, competition with immobilised ligand", "conditions": "1 µM", "quantity": "remaining binding", "value": "92%"}
{"Structure (SMILES)": "Cc1cnc2nc1Nc1cccc(c1)COC/C=C/COCc1cc(ccc1OCCN1CCOCC1)N2", "target": "PIK3CB", "test": "binding", "conditions": "0.1 µM", "quantity": "remaining binding", "value": "100%"}
{"Structure (SMILES)": "CNC(=O)C1CCN(c2cc(C)c(F)cc2NC(=O)c2ccc(-c3cc(O)ccc3C)c(C)c2)CC1", "target": "PIK3CB", "test": "binding, competition with immobilised ligand", "conditions": "1 µM", "quantity": "remaining binding", "value": "100%"}
{"Structure (SMILES)": "CS(=O)(=O)Nc1cccc(-c2csc3cnc(Nc4ccc(N5CCN(CCCCCOc6cccc7c6C(=O)N(C6CCC(=O)NC6=O)C7=O)CC5)cc4)nc23)c1 (centres unmarked)", "target": "PIK3CB", "test": "probe labelling, inhibitor, KiNativ chemoproteomics", "system": "MOLT-4", "conditions": "1 µM", "quantity": "inhibition", "value": "33.7%"}
{"Structure (SMILES)": "C=CC(=O)Nc1cccc(-c2cnc3[nH]cc(C(=O)NC(C)(C)C)c3n2)c1", "target": "PIK3CB", "test": "kinase activity", "conditions": "0.1 µM", "quantity": "inhibition", "value": "-1% and 10%"}
{"Structure (SMILES)": "C=CC(=O)Nc1cc(-c2nn(C3CCN(CCNC(=O)[C@H](C)CCC45CC6CC(CC(C6)C4)C5)CC3)c3ncnc(N)c23)ccc1Oc1ccccc1", "target": "PIK3CB", "test": "inhibitor, KiNativ profiling", "system": "biochemical", "conditions": "2 µM", "quantity": "inhibition", "value": "28.8%"}
{"Structure (SMILES)": "C=CC(=O)N1CCCC(n2c(=O)c3ncccc3n(Cc3ccc(Oc4ccccc4)cc3)c2=O)C1 (centres unmarked)", "target": "PIK3CB", "test": "cell-free assay, competition with immobilised ligand", "conditions": "1 µM", "quantity": "remaining binding", "value": "91%"}
{"Structure (SMILES)": "Cc1nc2c(F)cc(-c3nc(Nc4ccc(CNC(=O)CCCCCCC(=O)NO)cc4)ncc3F)cc2n1C(C)C", "target": "PIK3CB with p85 alpha", "test": "enzyme activity", "conditions": "1 µM, p110β/p85α)(h human", "quantity": "inhibition", "value": "5%"}
{"Structure (SMILES)": "CN1CC[C@@H](COc2cnc(C#N)cc2-c2ccn3nc(NC(=O)C4CC4)cc3c2)C1", "target": "PIK3CB with p85 alpha", "test": "inhibitor, KinaseProfiler panel", "conditions": "1 µM", "quantity": "inhibition", "value": "1%"}
{"Structure (SMILES)": "C=CC(=O)N1CCc2ccc(-n3c(=O)ccc4cnc5ccc(-c6cnn(C)c6)cc5c43)cc21", "target": "PIK3CB", "test": "KINOMEscan", "conditions": "1 µM", "how to read": "reference: DMSO control", "quantity": "remaining binding", "value": "100%"}
{"Structure (SMILES)": "COc1cc(Nc2nc(C)cc(-c3cnn4nc(OC)ccc34)n2)cc(C(F)(F)F)c1", "target": "PIK3CB", "test": "inhibitor", "conditions": "1 µM", "how to read": "reference: control", "quantity": "remaining activity", "value": "55%"}
{"Structure (SMILES)": "CNC1C[S+]2CC[S+]3CC[S+](C1)[Ru-4]321([N]=C=S)[n]2c3ccc(OC)cc3c3c4c(c5cc(F)c[n+]1c5c32)C(=O)NC4=O (centres unmarked)", "target": "PIK3CB", "test": "KinomeScan", "conditions": "0.1 µM", "how to read": "reference: untreated", "quantity": "remaining binding", "value": "77%"}
{"Structure (SMILES)": "CN1CCN(Cc2ccc(-c3ccc(CO[C@H]4CCC[C@@H]4NC(=O)c4cc(-c5cnn(C)c5)cnc4N)cc3)cc2)CC1", "target": "PIK3CB with p85 alpha", "test": "SelectScreen kinase profiling", "conditions": "0.1 µM", "quantity": "inhibition", "value": "-1%"}
{"Structure (SMILES)": "COc1cc(Nc2nccc(-c3cnn4nc(OC)ccc34)n2)cc(C(F)(F)F)c1", "target": "PIK3CB", "test": "binding, competition with immobilised ligand", "conditions": "1 µM", "quantity": "remaining binding", "value": "100%"}
{"note": "Excerpt of the above:"}
{"Structure (SMILES)": "COc1cc(Nc2nccc(-c3cnn4nc(OC)ccc34)n2)cc(C(F)(F)F)c1", "target": "PIK3CB", "test": "binding, competition with immobilised ligand", "conditions": "1 µM", "quantity": "remaining binding", "value": "100%"}
